Results collected from several papers.
A part holds a random share of what one study measured.
UniProt O15294, sequence (whole entry, looked up): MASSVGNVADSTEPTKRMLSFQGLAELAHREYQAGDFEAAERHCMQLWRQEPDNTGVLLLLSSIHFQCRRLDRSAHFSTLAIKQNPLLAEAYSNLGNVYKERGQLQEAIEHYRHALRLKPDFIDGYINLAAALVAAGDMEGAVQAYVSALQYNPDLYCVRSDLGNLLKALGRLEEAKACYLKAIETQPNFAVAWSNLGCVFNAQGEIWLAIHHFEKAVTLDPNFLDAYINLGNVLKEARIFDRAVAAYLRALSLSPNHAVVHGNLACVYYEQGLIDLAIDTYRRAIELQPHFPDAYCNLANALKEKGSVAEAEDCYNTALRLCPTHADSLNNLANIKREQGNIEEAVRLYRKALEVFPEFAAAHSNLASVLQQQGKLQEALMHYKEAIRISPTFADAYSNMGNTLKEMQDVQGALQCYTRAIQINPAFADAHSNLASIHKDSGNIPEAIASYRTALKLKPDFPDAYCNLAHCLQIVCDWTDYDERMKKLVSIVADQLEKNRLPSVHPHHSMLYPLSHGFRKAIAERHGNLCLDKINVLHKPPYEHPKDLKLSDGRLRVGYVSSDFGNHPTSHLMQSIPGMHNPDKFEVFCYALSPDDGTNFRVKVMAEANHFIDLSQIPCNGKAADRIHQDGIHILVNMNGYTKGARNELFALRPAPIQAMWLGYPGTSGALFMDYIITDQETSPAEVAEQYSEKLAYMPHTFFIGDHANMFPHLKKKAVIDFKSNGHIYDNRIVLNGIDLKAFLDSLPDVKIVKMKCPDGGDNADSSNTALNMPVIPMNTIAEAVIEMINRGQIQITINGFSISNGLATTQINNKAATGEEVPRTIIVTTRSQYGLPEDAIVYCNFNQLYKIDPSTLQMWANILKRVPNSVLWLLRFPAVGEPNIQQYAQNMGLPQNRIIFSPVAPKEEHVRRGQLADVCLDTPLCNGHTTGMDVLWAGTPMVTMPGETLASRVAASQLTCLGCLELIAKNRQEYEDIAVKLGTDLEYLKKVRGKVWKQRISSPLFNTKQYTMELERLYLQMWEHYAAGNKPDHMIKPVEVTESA

Sample 1
Target: Max-binding protein MNT, bHLH-zipper, MAX partner unstated (MNT, Homo sapiens, UniProt Q99583, residues 220-300)
Method: protein-binding microarray
Form: double-stranded DNA, one strand shown
Sample: in vitro
Tested at: not given
Setting: k-mer, scored over probes, only values ≥0.25
Direction: higher = stronger binding
Residues (chain): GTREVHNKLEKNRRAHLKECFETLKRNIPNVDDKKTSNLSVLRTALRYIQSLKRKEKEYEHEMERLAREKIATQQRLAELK
Sequence	E-score
ATGCCATG	0.32
CGTGCTAG	0.396
ATACCATG	0.263
ACCACGTG	0.498
CATTGCCC	0.257
CCCGCACG	0.375
ATGAGGCG	0.276
CGGCATGA	0.276

Sample 2
Target: Ras GTPase-activating protein-binding protein 1, full length (G3BP1, Homo sapiens, UniProt Q13283)
UniProt Q13283, sequence (whole entry, looked up): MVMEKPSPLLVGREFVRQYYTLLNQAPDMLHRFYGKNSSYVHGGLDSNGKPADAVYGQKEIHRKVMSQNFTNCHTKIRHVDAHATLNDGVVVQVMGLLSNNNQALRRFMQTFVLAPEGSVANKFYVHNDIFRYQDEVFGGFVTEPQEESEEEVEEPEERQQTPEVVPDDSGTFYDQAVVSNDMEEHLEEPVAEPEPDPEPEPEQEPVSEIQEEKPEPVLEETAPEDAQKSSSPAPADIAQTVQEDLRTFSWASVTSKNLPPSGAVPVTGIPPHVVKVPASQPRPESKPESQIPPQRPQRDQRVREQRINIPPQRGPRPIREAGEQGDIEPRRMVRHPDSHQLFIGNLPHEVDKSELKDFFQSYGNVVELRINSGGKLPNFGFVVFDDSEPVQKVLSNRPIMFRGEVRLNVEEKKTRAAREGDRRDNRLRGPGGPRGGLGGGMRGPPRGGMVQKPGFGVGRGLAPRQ
Method: RNA Bind-n-Seq
Form: RNA
Sample: in vitro
Tested at: 200 nM
Setting: whole 134-nt RNA, ends assumed
With: 150 mM LiCl
Baseline: input library
Direction: higher = stronger binding
Library: 7-deaza-guanosine replaces G
All sequences stand within: GGGAGUUCUACAGUCCGACGAUC … UGGAAUUCUCGGGUGUCAAGG
Sequence	log2 enrichment
CCUCAAGUCCUGUGCUACACAUCGUAUGUACCGAAUCGGUGGGUGGGUGGGGAAAGUAUUAUGUUACGCCGUUCGGAUCUGCACUUCCAG	0.17
AAGUCCUGUGCUACACAUCGUAUGUACCGAAUCGGGAAAGGGAAAAAGGGAAAGGGAAAGUAUUAUGUUACGCCGUUCGGAUCUGCACUU	-0.0694
UGGGAGGUGGAUAUUGUUUAUUUUUUUAGCUCAUUUCCAGGGGUGGGAAUUUUUUUUUAAUAUGUGUCAUGAAUAAAGUUGUUUUUGAAA	-0.737
UGCUGCUUUCUGCCUUGGUGGCAGGCAGAGAACUGUCUCGUACUAGAAUUCAAGGAGGAAAGAAGAAGAAAUAAAAGAAGCUGCUCCAUU	-0.111
UGGGAGGUGGAUUUUGUUUAUUUUUUUAGCUCAUUUCCAGGGGUGGGAAUUUUUUUUUAGUAUGUGUCAUGAAUAAAGUUGUUUUUGAAA	0.447
CAAGUCCUGUGCUACACAUCGUAUGUACCGAAUCGGGUGGGAGGGUUUUUUUGGGAAAGUAUUAUGUUACGCCGUUCGGAUCUGCACUUC	0.0319
AAGUCCUGUGCUACACAUCGUAUGUACCGAAUCGGGGCCCGGGGCCCGGGGCCCGGAAAGUAUUAUGUUACGCCGUUCGGAUCUGCACUU	-0.72
UCCUGUGCUACACAUCGUAUGUACCGAAUCGGGGAAAAAAGGAAAAAAGGGAAAAAAGGAAAGUAUUAUGUUACGCCGUUCGGAUCUGCA	0.137

Other studies, line by line
Substance	target	test	system	conditions	scale	endpoint	value
PhoQ, residues 284 288 289 292 302 303 TVTVVA	PhoP, residues 12 14 15 18 19 LYHSL (Escherichia coli, UniProt P23836)	Sort-seq, refers to: YFP reporter	E. coli	PhoQ-PhoP variant library, with: 10 µM Mg2+	baseline: high Mg2+ state, higher = stronger signaling	fold induction	1.1
NLHHYAKWLASIDH	OGT (Homo sapiens, UniProt O15294)	binding, phage display NGS	peptide	panning round 2	baseline: input library	minimum log2 enrichment ratio	1.48
